Measured values pooled from the literature.
Every numbered part comes from another study and shows a few of its results, in no order. Several values in a cell are separate wells, animals, samples, runs or records.
UniProt Q92772, sequence (whole entry, looked up): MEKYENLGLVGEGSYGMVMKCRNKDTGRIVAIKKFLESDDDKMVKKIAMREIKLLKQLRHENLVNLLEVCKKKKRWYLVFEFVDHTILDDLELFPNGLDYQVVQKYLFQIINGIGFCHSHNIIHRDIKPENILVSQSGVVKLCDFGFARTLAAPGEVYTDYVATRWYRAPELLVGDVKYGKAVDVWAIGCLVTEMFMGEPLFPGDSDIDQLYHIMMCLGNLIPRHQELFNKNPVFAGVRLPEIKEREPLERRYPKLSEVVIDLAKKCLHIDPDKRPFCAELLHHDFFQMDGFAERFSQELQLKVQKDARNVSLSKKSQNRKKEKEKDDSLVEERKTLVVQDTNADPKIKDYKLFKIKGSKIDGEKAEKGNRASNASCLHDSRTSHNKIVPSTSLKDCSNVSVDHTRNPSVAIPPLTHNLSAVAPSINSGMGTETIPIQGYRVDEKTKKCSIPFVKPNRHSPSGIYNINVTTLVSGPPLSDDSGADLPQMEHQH
UniProt P43403, sequence (whole entry, looked up): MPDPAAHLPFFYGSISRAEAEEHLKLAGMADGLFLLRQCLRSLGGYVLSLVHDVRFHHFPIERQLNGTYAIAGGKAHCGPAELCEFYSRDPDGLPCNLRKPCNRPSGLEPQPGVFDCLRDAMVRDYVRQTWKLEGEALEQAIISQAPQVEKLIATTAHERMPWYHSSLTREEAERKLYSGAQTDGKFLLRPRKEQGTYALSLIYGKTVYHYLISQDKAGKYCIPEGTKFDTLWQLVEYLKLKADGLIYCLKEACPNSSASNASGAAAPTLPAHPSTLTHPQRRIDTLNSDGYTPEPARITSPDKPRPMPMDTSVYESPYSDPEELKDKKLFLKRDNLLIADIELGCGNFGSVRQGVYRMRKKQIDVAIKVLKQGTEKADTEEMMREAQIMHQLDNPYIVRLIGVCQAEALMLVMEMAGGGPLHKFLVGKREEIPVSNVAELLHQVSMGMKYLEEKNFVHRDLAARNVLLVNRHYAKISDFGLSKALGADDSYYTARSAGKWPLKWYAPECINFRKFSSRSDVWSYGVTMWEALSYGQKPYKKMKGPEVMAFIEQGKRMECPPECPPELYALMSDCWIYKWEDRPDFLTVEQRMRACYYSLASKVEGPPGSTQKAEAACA
UniProt P36897, sequence (whole entry, looked up): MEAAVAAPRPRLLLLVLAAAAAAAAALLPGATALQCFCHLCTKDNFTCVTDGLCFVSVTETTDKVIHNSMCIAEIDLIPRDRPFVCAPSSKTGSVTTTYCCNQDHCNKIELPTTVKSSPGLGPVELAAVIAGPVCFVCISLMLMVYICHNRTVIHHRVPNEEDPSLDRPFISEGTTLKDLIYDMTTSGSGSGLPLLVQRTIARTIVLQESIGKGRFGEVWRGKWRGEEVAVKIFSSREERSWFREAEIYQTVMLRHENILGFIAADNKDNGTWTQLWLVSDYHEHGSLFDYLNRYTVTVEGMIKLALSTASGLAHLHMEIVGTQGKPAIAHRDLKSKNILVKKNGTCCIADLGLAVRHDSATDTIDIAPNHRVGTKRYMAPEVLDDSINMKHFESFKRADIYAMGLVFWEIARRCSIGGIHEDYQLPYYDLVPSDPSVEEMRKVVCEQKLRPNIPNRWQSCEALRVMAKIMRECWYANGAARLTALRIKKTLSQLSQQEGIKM
UniProt Q8IU85, sequence (whole entry, looked up): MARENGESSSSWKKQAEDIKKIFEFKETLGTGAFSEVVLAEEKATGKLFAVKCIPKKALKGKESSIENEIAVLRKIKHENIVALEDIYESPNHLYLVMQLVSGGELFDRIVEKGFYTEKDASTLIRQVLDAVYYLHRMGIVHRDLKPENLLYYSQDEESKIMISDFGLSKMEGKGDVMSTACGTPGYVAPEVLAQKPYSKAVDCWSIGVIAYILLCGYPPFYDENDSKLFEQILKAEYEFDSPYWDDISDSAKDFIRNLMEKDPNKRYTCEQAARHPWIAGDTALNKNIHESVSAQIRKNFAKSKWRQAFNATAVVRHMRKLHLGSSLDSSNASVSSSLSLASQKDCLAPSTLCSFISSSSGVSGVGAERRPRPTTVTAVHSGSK
UniProt P22607, sequence (whole entry, looked up): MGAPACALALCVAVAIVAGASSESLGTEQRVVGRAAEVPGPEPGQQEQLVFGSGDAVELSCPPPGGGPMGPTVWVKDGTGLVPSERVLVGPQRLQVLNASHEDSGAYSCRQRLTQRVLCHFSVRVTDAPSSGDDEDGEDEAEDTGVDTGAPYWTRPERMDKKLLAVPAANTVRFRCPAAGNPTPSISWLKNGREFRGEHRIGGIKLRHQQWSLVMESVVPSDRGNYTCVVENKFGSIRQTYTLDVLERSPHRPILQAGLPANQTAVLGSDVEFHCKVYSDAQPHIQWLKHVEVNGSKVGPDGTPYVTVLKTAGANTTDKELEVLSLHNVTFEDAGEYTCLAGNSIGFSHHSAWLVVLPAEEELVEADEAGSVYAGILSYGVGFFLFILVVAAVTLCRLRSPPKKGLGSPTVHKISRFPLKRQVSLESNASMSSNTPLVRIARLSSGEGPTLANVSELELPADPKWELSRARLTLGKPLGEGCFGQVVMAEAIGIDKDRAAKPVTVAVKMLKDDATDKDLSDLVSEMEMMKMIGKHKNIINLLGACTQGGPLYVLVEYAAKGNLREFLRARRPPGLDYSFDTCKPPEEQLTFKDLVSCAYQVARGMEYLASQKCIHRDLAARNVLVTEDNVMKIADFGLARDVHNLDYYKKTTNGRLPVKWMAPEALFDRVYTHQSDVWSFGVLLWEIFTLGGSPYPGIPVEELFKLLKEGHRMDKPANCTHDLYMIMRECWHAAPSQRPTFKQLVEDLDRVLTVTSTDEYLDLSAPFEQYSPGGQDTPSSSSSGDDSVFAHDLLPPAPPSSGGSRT
UniProt P28482, sequence (whole entry, looked up): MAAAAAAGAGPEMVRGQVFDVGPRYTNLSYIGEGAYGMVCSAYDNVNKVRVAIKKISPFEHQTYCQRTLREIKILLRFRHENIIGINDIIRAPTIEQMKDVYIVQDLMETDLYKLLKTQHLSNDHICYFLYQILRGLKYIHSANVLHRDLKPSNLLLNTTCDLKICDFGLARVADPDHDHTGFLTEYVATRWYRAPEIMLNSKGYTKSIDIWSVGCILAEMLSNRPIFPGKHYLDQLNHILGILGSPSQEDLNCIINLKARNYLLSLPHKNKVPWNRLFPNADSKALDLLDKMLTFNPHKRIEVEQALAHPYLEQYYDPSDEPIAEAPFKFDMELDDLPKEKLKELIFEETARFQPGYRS
UniProt Q8TBX8, sequence (whole entry, looked up): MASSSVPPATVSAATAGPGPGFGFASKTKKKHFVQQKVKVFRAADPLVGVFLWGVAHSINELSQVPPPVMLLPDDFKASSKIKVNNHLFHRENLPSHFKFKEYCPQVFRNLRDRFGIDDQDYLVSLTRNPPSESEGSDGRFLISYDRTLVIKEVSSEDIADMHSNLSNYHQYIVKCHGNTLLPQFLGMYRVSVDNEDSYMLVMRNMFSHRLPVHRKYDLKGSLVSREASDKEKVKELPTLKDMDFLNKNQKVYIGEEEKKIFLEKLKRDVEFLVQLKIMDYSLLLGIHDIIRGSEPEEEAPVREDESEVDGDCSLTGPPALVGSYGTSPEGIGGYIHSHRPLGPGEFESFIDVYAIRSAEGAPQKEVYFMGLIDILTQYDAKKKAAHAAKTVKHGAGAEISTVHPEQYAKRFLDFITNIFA
UniProt Q9NYL2, sequence (whole entry, looked up): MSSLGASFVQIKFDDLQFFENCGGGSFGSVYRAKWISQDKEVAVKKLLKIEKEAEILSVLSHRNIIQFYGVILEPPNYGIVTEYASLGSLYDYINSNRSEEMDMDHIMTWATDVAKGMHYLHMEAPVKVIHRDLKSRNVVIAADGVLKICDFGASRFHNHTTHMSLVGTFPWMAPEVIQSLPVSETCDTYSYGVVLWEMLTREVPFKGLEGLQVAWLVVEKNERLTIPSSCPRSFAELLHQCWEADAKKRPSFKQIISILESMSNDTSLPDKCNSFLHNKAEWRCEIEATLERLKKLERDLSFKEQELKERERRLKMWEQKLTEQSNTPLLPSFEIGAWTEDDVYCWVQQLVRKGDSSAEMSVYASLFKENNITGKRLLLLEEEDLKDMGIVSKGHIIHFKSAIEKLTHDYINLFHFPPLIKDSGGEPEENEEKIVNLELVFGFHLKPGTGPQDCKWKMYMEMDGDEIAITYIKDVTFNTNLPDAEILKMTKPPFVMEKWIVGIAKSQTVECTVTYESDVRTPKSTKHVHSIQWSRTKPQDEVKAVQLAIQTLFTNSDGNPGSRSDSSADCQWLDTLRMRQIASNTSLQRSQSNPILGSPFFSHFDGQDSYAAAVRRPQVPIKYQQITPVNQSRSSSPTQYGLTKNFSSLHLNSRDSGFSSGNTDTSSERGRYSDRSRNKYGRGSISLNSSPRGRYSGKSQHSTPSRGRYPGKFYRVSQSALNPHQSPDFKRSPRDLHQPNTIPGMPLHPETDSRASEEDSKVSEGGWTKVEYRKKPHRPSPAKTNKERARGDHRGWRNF

Set 1
SMILES: CC(C)n1cnc(-c2ccc(F)cc2)c1-c1ncc(C(=O)Nc2ccc(N3CCN(C)CC3)cc2)[nH]1
Method: phase 2a trial
Species: idiopathic pulmonary fibrosis patients
It gave 0% for “patients with gastrointestinal disorders” (60 mg once daily, adverse event grade 4).
dose not given, adverse event grade 3, all dose arms pooled — “patients with gastrointestinal disorders”: 0%.
It gave 5% for “patients with gastrointestinal disorders” (dose not given, grade 2, arms pooled).
The “patients with gastrointestinal disorders” was 2% (30 mg once daily, adverse event grade 1).
For dose not given, adverse event grade 5, all dose arms pooled: “patients with gastrointestinal disorders” read 0%.

Set 2
Target: Serine/threonine-protein kinase PLK1 (PLK1, Homo sapiens, UniProt P53350)
UniProt P53350, sequence (whole entry, looked up): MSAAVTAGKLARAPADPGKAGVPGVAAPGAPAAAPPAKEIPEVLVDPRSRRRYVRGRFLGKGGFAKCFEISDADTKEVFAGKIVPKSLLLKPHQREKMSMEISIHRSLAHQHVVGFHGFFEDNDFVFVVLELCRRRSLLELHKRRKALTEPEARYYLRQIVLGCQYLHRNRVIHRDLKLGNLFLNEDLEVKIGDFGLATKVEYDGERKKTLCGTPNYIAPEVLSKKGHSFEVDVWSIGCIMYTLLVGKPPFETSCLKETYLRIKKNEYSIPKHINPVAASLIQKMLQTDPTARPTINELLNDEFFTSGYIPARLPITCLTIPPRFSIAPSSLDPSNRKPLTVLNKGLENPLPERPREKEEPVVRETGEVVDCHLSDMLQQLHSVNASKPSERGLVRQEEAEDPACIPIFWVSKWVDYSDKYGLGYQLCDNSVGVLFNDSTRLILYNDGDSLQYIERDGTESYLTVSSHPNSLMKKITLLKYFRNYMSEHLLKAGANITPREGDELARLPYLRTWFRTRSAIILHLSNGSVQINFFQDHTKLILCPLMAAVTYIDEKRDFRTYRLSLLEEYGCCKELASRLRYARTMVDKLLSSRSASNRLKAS
Effect on: enzyme activity
Action: inhibitor
Tested at: 0.5 µM
Relative to: control
With Cc1cncc2cccc(S(=O)(=O)N3CCCN(C(=O)CN)C[C@@H]3C)c12 the remaining activity was 101%.
With O=C1Cc2c([nH]c3ccc([N+](=O)[O-])cc23)-c2ccccc2N1 the remaining activity was 98%.
For CCc1[nH]c(-c2ccc(OC)cc2)nc1-c1ccncc1, the remaining activity was 103%.
With CC(=O)c1ccc(N2CCOCC2)cc1O the remaining activity was 94.3%.
The remaining activity of CC#CC(=O)Nc1cc2c(Nc3ccc(F)c(Cl)c3)ncnc2cn1 is reported as 99.3%.
The remaining activity of Cc1ccc(NC2=CC(=O)c3sc(C)nc3C2=O)cc1 is reported as 86.8%.
CSc1nc(-c2ccnc(N[C@@H](C)c3ccccc3)c2)c(-c2ccc(F)cc2)[nH]1 (racemic) gave a remaining activity of 99.1%.
For O=C1NC(=O)C(c2c[nH]c3ccccc23)=C1c1c[nH]c2ccccc12, the remaining activity was 94.5%.
For Nc1nccc(-c2c(-c3ccc(F)cc3)ncn2C2CCNCC2)n1, the remaining activity was 101%.
The remaining activity of NC(=O)c1ccc(N(C(N)=O)c2c(F)cccc2F)nc1-c1ccc(F)cc1F is reported as 95.1%.

Set 3
SMILES: O=C(Nc1cnc(Oc2ccc(F)cc2)nc1)N1CCc2ncccc2[C@@H]1c1ccc(F)cc1
Effect on: cell-free assay
Method: competition with immobilised ligand
Tested at: 1 µM
It gave 100% for remaining binding (Calcium/calmodulin-dependent protein kinase type 1D (CAMK1D, Homo sapiens, UniProt Q8IU85)).
The remaining binding was 100% (Mitogen-activated protein kinase kinase kinase 20 (MAP3K20, Homo sapiens, UniProt Q9NYL2)).
For Serine/threonine-protein kinase PLK4 (PLK4, Homo sapiens, UniProt O00444): remaining binding read 100%.
Mitogen-activated protein kinase 1 (MAPK1, Homo sapiens, UniProt P28482) — remaining binding: 100%.
It gave 89% for remaining binding (Fibroblast growth factor receptor 3 (FGFR3, Homo sapiens, UniProt P22607)).
Cyclin-dependent kinase-like 2 (CDKL2, Homo sapiens, UniProt Q92772) — remaining binding: 33%.
TGF-beta receptor type-1 (TGFBR1, Homo sapiens, UniProt P36897) — remaining binding: 90%.
The remaining binding was 86% (Phosphatidylinositol 5-phosphate 4-kinase type-2 gamma (PIP4K2C, Homo sapiens, UniProt Q8TBX8)).
Muscle, skeletal receptor tyrosine-protein kinase (MUSK, Homo sapiens, UniProt O15146) — remaining binding: 86%.
It gave 93% for remaining binding (Tyrosine-protein kinase ZAP-70 (ZAP70, Homo sapiens, UniProt P43403)).

Set 4
Cell line: mouse MPNST tumor cells
Method: high-content nuclear imaging
Measured: cell number
Tested at: 10 µM
Time: 12 h
Setting: mean of 2 replicates
Relative to: plate mean
Direction: higher = more cells
O=C(O)[C@H](Cc1ccc(OC(=O)N2CCCC2)cc1)NC(=O)[C@@H]1CCCN1S(=O)(=O)c1ccccc1 has a nuclei count of -1.61 z-score.
For O=c1c(-c2ccc(O)cc2)coc2cc(O)cc(O)c12, the nuclei count was -0.344 z-score.
O=C1CCc2cc(OCCCCc3nnnn3C3CCCCC3)ccc2N1 has a nuclei count of 0.222 z-score and -0.173 z-score.
Cc1cc(C)nc(SCC(=O)Nc2ncc(Cc3cccc4ccccc34)s2)n1 gave a nuclei count of 1.27 z-score.
The nuclei count of O=C(COc1ccc(C(=O)c2ccccc2)cc1)NC1CCN(Cc2ccccc2)CC1 is reported as 2.53 z-score.

Repeated from above (set 3):
It gave 100% for remaining binding (Calcium/calmodulin-dependent protein kinase type 1D (CAMK1D, Homo sapiens, UniProt Q8IU85)).
It gave 93% for remaining binding (Tyrosine-protein kinase ZAP-70 (ZAP70, Homo sapiens, UniProt P43403)).
The remaining binding was 100% (Mitogen-activated protein kinase kinase kinase 20 (MAP3K20, Homo sapiens, UniProt Q9NYL2)).
